Assay results collected from several papers.
A part holds a random share of what one study measured. Changes are numbered by the printed parent chain.

Set 1 — technique: DHFR PCA, deep sequencing; medium: yeast; added: (+)-ABA 0.39 µM; baseline: wild-type fitted maximum; reading: higher = stronger binding
Target: ABI1, truncated, D143A, DHFR fusion (Arabidopsis thaliana)
Notes: methotrexate growth selection, single substitutions
Parent: PYL1, truncated, DHFR fusion (Arabidopsis thaliana); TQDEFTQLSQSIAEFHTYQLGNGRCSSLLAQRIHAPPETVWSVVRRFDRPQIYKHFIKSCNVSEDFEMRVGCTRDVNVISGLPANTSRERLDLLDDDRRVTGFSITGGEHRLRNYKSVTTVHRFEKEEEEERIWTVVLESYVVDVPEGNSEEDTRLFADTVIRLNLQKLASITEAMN
Change | relative binding score
N149L | 24.5%
D75Q | 52.5%
A30V | 36.1%
D75W | 42.2%
Q51I | -15.2%
R45C | -9.33%
L20K | 50.8%
T119W | -17.3%
L156I | 17.7%
R99F | 75.4%
F15N | 0.544%
L93P | 7.57%

Set 2 — technique: RNA Bind-n-Seq; molecule type: RNA; medium: in vitro; concentration: 365 nM; baseline: no-protein control; reading: higher = stronger binding
Target: RNA binding protein fox-1 homolog 2, RRM domain, GST-SBP tag (RBFOX2, Homo sapiens, UniProt O43251-10, residues 100-194)
Notes: natural RNA segment, single round, ends assumed
Residues (chain): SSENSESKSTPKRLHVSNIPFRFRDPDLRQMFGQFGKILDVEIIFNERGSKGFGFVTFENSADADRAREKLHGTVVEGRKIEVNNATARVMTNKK
Oligonucleotide | RBNS enrichment (R)
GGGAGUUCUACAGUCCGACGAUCGGCCGGCCUUCAGCGUCCGGUCAGGGAAGCGUGCAGCCCAAAUGGGCACUUGCAUGGGAGCCACAGAGGAGCGUCCCUGGGGAUUGUUGGGACCAUGCUGCCCCCACUCCUGGAAUUCUCGGGUGCCAA | 1.48
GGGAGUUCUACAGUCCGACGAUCUAAUAUCCCUAUCCAUGGAUCAUUUGAGUAUUGACUAAUGUACAUAGGUACCCAACUGGUUGAUUAUUAAUCAAGAAUACAGAACUUUAUUUAAUAAUUAGCACACCCUGUGGAAUUCUCGGGUGCCAA | 0.311
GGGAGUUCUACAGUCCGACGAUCGUACUGGCCACGAAAGGGUCUUGUGUAAAGUUACAUCAUCGGAGAGCGGUUUUUGAGCUUUCAAUAAGCUAUAGCUUUGUUUAUUUCACCUGUUCACUUACUGUAUAAUUUGGAAUUCUCGGGUGCCAA | 0.593
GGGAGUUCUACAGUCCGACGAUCAGAUCAGAAAGAAACCUUUUGUAGCAAUAUCAAGAAUCUAGUUUCAUCUGAGAACUUCUGAUUAGCUCUCAGUCUUCAGCUCUAUUUAUCUUAGGAGUUUAAUUUGCCCUUGGAAUUCUCGGGUGCCAA | 0.342
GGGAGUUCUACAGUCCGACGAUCUACAAACAUUUGUAUGACGUGAAUAGUUGAUGGCAUUUUUUUGUCAUGAAAAAAAUAAUGUAAAUCACAGACUUUUGCCAAAGCUCUUAUUUUUUUUCCUAAAUCUCUCCUGGAAUUCUCGGGUGCCAA | 0.833
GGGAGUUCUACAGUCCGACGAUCUAUCUAGUCCAAACAAUAGAGUUUAUUUUUUCUUCAUCUGAACCAACAUGCUACAGUAGCUAAGAAGUAUUAAAACUAUAUACAUCCAUAUAAAGAUGAAAUAUGAACUAUGGAAUUCUCGGGUGCCAA | 0.318
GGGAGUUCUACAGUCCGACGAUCAGCCCAGGAAGCUGGCCCAGGCCUGCUCCUCUGUGUUUCCCCAUGGGCAGCGAUAGAGGCCAAGUAUCUUGUGGGCACUCCUGCCUAACCCUGCAUUGGGAUAUCGAAGCUGGAAUUCUCGGGUGCCAA | 0.509
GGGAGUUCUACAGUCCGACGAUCUCAAAUUUAAUAAAGUUAAACAAAUUGAUUUACUUCAGAGCAAAUAUGAUCCUAUUAAAAUAAUAUAGGGUAAAUACCCUACCUCUUAGAAAGGGCAAAAAUGCAAAGAAUGGAAUUCUCGGGUGCCAA | 0.556
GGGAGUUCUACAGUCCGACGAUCUUCUUUCUUGUGGUGGGGCUCAGACACCAGCAACAGCCUCUUGGGAUGCCCCAAGUUGUUUCCGGUUCUUUCUAGCUGUCCUUUUUAAAGUGUGUGCUCUUCCUUCCUUAUGGAAUUCUCGGGUGCCAA | 0.341
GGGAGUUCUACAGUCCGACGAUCUAUGUCAGUUAGCUAAAACUUCAGAAUACAUUUCUCCCUAUAAAGAGUUAUAAAUGAUGGUUUAGUUCUCAGGCAGCUACAAAUGCCUAUUUAUUCCCUAAUGUACCUGAUGGAAUUCUCGGGUGCCAA | 0.248
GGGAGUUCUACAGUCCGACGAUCUGUUAAUAUAAAGUGUUGUUUUAGCAUGUGGCCAGAUGAUGCUCUGUCAUCUUUAGAAAGUGAGAUAACCAAGGAAAUAAUUGAAGGAGUAUAGGGAGAUGGAUUAAGUUUGGAAUUCUCGGGUGCCAA | 11.8
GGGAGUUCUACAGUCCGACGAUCCUAACAUGCCCAGGUGGUGUCGGCUCAGAGGAUCCUAGCACCAUCUUAAGCAGGUGGGAGGCAGGGAAGGGUGCACCAGCGUGUCUUUCCCUGACUUUACAUGGUGUUUUUGGAAUUCUCGGGUGCCAA | 0.585

Set 3 — target: CCNE1, cyclin fold, Cln2 fusion (human); technique: yeast growth competition, sequencing; medium: yeast; notes: strong parent motif; baseline: not given; reading: higher = stronger binding
Parent: E2F1 docking peptide (human); PPVKRRLDLETDH
Change | normalised enrichment score
PPVKRRLDLETDA [H13A] | 1.8
PPVKRRLDLEDDH [T11D] | 1.86
PPVKRILDLETDH [R6I] | 1.52
PPVERRLDLETDH [K4E] | 0.0559
PPVKRRFDLETDH [L7F] | 0.0132
IPVKRRLDLETDH [P1I] | 1.01
PPVKRRLDLHTDH [E10H] | 2.03
PPVKRRLDLEFDH [T11F] | 4.25
PKVKRRLDLETDH [P2K] | 1.61
PPVKRRLDLQTDH [E10Q] | 1.39
PPVYRRLDLETDH [K4Y] | -0.0708
PPVARRLDLETDH [K4A] | 1.53
PPVKRRLDLETDD [H13D] | 2.11
PPIKRRLDLETDH [V3I] | -0.409
PCVKRRLDLETDH [P2C] | 1.34
PPVKRRLHLETDH [D8H] | 0.422

Set 4 — technique: protein binding microarray; molecule type: double-stranded DNA, one strand shown; medium: in vitro; concentration: not given; baseline: not given; reading: higher = stronger binding
Target: Histone acetyltransferase KAT6A, winged helix 2, GST fusion (KAT6A, Homo sapiens, UniProt Q92794, residues 85-181)
Notes: 8-mer, flanks averaged, mean of 2 arrays, mostly near background
Construct (chain): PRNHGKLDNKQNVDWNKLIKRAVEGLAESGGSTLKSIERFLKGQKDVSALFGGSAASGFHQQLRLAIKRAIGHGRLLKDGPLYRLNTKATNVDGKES
Oligonucleotide | E-score
ACATCACG | -0.154
CCCTTTAG | -0.0253
TCAAAGGA | -0.146
CGTTAGAG | -0.129
AATTTCAG | 0.0173
GAATGGGC | 0.0298
AAACAGTT | 0.0141
AAATTCTC | -0.0457
ACCTGTAT | -0.11
AGCCTTTG | -0.171
GGACCCAC | 0.184
GTCCGAAA | -0.0118
CGGTGAAG | -0.0396
CCCCCAGC | -0.0328
CCATACTA | 0.0888
CAAAGGGA | -0.0414
CTAGTGCA | -0.0186
GGACCGTA | -0.138
AAGCCGGC | 0.175
TAATGGGA | -0.2
CTCACGCC | 0.0966
AATATAGA | 0.0431
AAATGTTA | -0.182
GCGTCCAA | -0.0146
AAGACAGA | -0.0239

Set 5 — technique: competition protein-binding microarray; molecule type: double-stranded DNA, one strand shown; medium: in vitro; concentration: 2 µM; added: Pho4 competitor, 0.05 µM; reading: higher = stronger binding
Target: Centromere-binding protein 1, full length, His-tagged (CBF1, Saccharomyces cerevisiae, UniProt P17106, residues 1-351)
Sequence of UniProt P17106 (whole entry, looked up): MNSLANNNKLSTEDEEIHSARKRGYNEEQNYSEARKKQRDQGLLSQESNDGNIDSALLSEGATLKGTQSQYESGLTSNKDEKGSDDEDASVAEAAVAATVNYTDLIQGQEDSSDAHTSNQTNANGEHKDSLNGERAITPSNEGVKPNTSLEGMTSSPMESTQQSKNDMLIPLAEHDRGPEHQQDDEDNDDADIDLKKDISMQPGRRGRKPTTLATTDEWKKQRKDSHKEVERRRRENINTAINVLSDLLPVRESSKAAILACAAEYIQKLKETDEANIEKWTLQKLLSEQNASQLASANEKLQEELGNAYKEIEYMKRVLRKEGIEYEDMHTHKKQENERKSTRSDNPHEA
Notes: whole 60-bp probe, lowest competitor level
Oligonucleotide | fluorescence intensity [a.u.]
CTAACGAAGGTTTGTCTCGTGGGTGACAAGCCAAGTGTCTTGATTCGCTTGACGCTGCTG | 95.6
AAGAAAGAGTTGGTCGTCGTGCCGATAACTTGAGAGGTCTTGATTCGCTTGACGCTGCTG | 65
TTCCATCTTCTAAAGACCGTGTCTGCGCTTCCAGATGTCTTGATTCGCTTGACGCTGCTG | 58.1
GTTATGGAGATAACACACGTGCCGAGAGGAAAATAGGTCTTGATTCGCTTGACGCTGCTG | 1490
CTAACGAAGGTTTTTCACGTGGTGTACAAGCCAAGTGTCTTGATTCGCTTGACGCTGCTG | 833
TGCGCAACAACTTGATGTGTGGGTGTATGTCTAGAAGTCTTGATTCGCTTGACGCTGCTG | 77.8
AAATTACTAAGTTGTCACCCCACTTACCCCGTATGAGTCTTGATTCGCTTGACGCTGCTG | 85.2
TGCGCAACAACTTGAAAGGTGGGTGTATGTCTAGAAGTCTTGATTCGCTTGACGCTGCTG | 59.5
CATACCCAACCTTGTCACATGACTTAAGATATTTGTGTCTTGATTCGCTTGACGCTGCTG | 4090
GGTACAGCGCCCTGTCATGTTCCCCGATTGCCTGTTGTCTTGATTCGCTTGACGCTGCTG | 69.1
CCCTTGATTTCTGCCTGTGTGATATTAAATAATTGTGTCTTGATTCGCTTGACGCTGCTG | 111
TCTTCTTTTTGCCTCCACGGGCCGCAGATCTGTGTTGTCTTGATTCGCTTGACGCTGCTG | 66
AACCGGTCCCTTCTGTGCGTGGTCGGACCTGCTACAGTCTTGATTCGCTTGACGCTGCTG | 51.6
GTCATTACGGGGGTTCACGTGCGATGGGAAGCTTTTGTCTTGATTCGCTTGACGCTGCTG | 987
GTAGCAGATTCCTGGAACGTGCTTTCTCTCGAGGTAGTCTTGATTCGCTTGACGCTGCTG | 112
AAATTACTAAGTTGTCACCCGACTTACCCCGTATGAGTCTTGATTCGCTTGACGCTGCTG | 72
TGCGCAACAACTTTTCACGTGCGATTATGTCTAGAAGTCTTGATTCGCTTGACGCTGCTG | 917

For quick reference, copied from above (set 5):
Oligonucleotide | fluorescence intensity [a.u.]
TCTTCTTTTTGCCTCCACGGGCCGCAGATCTGTGTTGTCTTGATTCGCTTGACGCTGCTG | 66
GGTACAGCGCCCTGTCATGTTCCCCGATTGCCTGTTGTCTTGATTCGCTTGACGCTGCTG | 69.1
CATACCCAACCTTGTCACATGACTTAAGATATTTGTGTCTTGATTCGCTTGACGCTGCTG | 4090
TTCCATCTTCTAAAGACCGTGTCTGCGCTTCCAGATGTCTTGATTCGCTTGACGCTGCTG | 58.1
TGCGCAACAACTTGAAAGGTGGGTGTATGTCTAGAAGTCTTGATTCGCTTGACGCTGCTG | 59.5
GTAGCAGATTCCTGGAACGTGCTTTCTCTCGAGGTAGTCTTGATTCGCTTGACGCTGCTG | 112
